Results pooled from the literature.
RPS6KA3: Ribosomal protein S6 kinase alpha-3 (RPS6KA3, Homo sapiens, UniProt P51812)
Chain of UniProt P51812 (whole entry, looked up): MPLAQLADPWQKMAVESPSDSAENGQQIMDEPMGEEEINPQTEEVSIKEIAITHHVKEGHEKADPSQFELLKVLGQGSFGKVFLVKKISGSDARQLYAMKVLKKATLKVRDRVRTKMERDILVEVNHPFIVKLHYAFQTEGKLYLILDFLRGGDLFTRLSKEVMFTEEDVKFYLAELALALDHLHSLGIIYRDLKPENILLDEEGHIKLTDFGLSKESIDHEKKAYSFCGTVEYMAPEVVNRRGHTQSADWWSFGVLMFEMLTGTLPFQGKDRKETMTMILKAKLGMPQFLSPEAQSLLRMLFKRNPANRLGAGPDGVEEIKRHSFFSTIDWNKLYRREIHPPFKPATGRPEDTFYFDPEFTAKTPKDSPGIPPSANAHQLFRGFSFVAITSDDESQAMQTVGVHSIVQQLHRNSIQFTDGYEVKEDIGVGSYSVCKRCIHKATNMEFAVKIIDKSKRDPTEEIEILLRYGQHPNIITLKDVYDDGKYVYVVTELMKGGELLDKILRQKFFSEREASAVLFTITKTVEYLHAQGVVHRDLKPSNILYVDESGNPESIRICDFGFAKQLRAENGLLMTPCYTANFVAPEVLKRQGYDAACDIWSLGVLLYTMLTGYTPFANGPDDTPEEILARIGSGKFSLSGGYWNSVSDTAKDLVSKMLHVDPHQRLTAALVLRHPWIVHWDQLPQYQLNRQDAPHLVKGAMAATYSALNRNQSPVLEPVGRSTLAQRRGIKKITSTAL

SMILES	target	test	system	conditions	how to read	measurement	value
O=C1NC(=O)/C(=C/c2ccc(-c3ccc(F)cc3O)o2)S1	RPS6KA3	enzyme activity	–	10 µM	–	remaining activity	40%
COc1cc(F)ccc1-c1ncnc(Nc2cccc(C[S@](C)(=N)=O)c2)n1	RPS6KA3	kinase activity	–	10 µM, together with: 10 µM ATP	–	remaining activity	122%
CCN1CCN(Cc2ccc(NC(=O)c3ccc(C)c(Oc4ccnc5[nH]ccc45)c3)cc2C(F)(F)F)CC1	RPS6KA3	–	A-375	concentration not given	–	inhibition	-0.0649%
C=CC(=O)N1CCC(COCC(=O)N2CCN(c3nc(-c4cnc(N)nc4C(F)F)nc(N4CCOC[C@@H]4C)n3)CC2)CC1	Ribosomal protein S6 kinase alpha-3, N-terminal kinase domain (RPS6KA3, Homo sapiens, UniProt P51812)	KINOMEscan	–	1 µM	–	remaining binding	100%
CCN1CCN(Cc2ccc(NC(=O)c3ccc(C)c(/C=C/c4cnc5[nH]ccc5c4OC)c3)cc2C(F)(F)F)CC1	RPS6KA3	–	A-375	concentration not given	–	inhibition	0.274%
CC[C@@H]1[C@H](F)C(=O)N[C@@H]1COc1nccc2cc(C(N)=O)c(OC)cc12	RPS6KA3	ATP probe binding, KiNativ profiling, measured: domain 2 Lys2 site	THP-1 cell lysate	0.04 mM	–	inhibition	-18.2%
CN1CC(Oc2cnc(C#N)cc2-c2ccn3nc(NC(=O)C4CC4)cc3c2)C1	RPS6KA3	inhibitor, KinaseProfiler panel	–	1 µM	–	inhibition	19%
CNc1ncc2c(/C=C/C(=O)N3CCC(OC)CC3)nn(Cc3cccc(C(F)(F)F)c3)c2n1	RPS6KA3	kinase activity, inhibitor	–	1 µM	baseline: untreated control	remaining activity	109%

For quick reference, copied from above:
SMILES	target	test	system	conditions	how to read	measurement	value
CCN1CCN(Cc2ccc(NC(=O)c3ccc(C)c(/C=C/c4cnc5[nH]ccc5c4OC)c3)cc2C(F)(F)F)CC1	RPS6KA3	–	A-375	concentration not given	–	inhibition	0.274%
